# Assay results collected from several papers.
# ± marks the error that the study gave.
SMILES,test,system,setting,scale,measurement,value
CCCC[C@H]1C(=O)N(C)[C@@H](CCCC)C(=O)N[C@@H](CCCNC(=O)CN2CCN(CC(=O)O)CCN(CC(=O)O)CCN(CC(=O)O)CC2)C(=O)N[C@H](C(=O)NCC(N)=O)CSCC(=O)N[C@@H](Cc2ccc(O)cc2)C(=O)N(C)[C@@H](C)C(=O)N[C@@H](CC(N)=O)C(=O)N2CCC[C@H]2C(=O)N[C@@H](Cc2c[nH]cn2)C(=O)N[C@@H](CC(C)C)C(=O)N(C)CC(=O)N[C@@H](Cc2c[nH]c3ccccc23)C(=O)N[C@@H](CO)C(=O)N[C@@H](Cc2c[nH]c3ccccc23)C(=O)N1C [gallium-68 labelled],,"NOD/SCID mice, CHO-hPD-L1 xenograft, lung","60 min, with: blocking agent 50 µg co-injected",,tissue uptake,13.2 ± 3.13 %ID/g
O=C1NC2(CC2)COc2ncc(F)cc2[C@H]2COCCN2c2ccn3ncc1c3n2,,"Sprague-Dawley rat, female, liver","oral, 20 mg/kg/day, 4 weeks dosing, end of recovery",,organ-to-brain weight ratio,446 ± 40.4%
C=CC(=O)Nc1cccc(Cn2ncc3cnc(Nc4cnn(CCOC)c4)nc32)c1,,"Sprague-Dawley rat female, serum","oral, 180 mg/kg, day 28, 28-day subacute toxicity",,serum ALT,31.2 ± 10.1 U/L
CSCC[C@H](NC(=O)CNC(=O)[C@H](CCCCN)NC(=O)[C@H](CC(C)C)NC(=O)[C@@H]1CCCN1C(=O)[C@H](CO)NC(=O)[C@H](Cc1c[nH]cn1)NC(=O)[C@H](Cc1c[nH]c2ccccc12)NC(=O)[C@H](CCCNC(=N)N)NC(=O)[C@H](CC(C)C)NC(=O)[C@H](CCCNC(=N)N)NC(=O)[C@H](Cc1c[nH]c2ccccc12)NC(=O)[C@H](CS)NC(=O)CCCCCNC(=O)CN1CCN(CC(=O)O)CCN(CC(=O)O)CCN(CC(=O)O)CC1)C(=O)O [copper-64 labelled],ex vivo biodistribution,"male C57BL/6J mice, stomach","intravenous, 1.85 MBq, 30 h, B16-F10 tumour-bearing",,tissue uptake,1.66 %ID/g
CC[C@H](C)[C@H](NC(=O)[C@H](CCCCN)NC(=O)CNC(=O)[C@H](CC(C)C)NC(=O)[C@H](Cc1ccccc1)NC(=O)[C@H](CCCCN)NC(=O)[C@H](CO)NC(=O)[C@H](Cc1ccccc1)NC(=O)[C@H](Cc1c[nH]c2ccccc12)NC(=O)[C@H](CCC(N)=O)NC(=O)[C@@H](NC(=O)[C@H](Cc1ccccc1)NC(=O)CCCCCNC(=O)CN1CCN(CC(=O)O)CCN(CC(=O)O)CCN(CC(=O)O)CC1)C(C)C)C(=O)N[C@@H](CCC(=O)O)C(=O)N1CCC[C@H]1C(=O)N[C@@H](CC(=O)O)C(=O)N[C@H](C(=O)N[C@@H](CO)C(=O)N[C@@H](CCC(N)=O)C(=O)N[C@H](C(=O)N[C@@H](CCC(N)=O)C(=O)N[C@@H](CC(=O)O)C(=O)N1CCC[C@H]1C(=O)N[C@@H](CC(N)=O)C(=O)N[C@@H](CC(=O)O)C(=O)N[C@@H](CCC(N)=O)C(=O)N[C@@H](Cc1ccc(O)cc1)C(=O)N[C@@H](CCC(=O)O)C(=O)N1CCC[C@H]1C(=O)N[C@@H](Cc1ccccc1)C(=O)O)C(C)C)C(C)C [copper-64 labelled],,"BALB/c mice, male, CT26 tumour-bearing, lung","2 h, anti-PD1 plus anti-CTLA4 treated",,tissue uptake,3.76 ± 2.2 %ID/g
C#Cc1c(F)ccc2cc(O)cc(-c3ncc4c(N5CC6CCC(C5)N6C(=O)OC(C)OC(=O)c5cccnc5)nc(OC[C@@]56CCCN5C[C@H](F)C6)nc4c3F)c12 (stereo partly shown),chemical stability,simulated intestinal fluid,"1 µM, 30 min",,compound remaining,71%
Cc1ccc(OCC(=O)N(Cc2cccs2)c2ccn[nH]2)cc1,in vivo micronucleus,"Crl:CD-1(ICR) mice, male, bone marrow polychromatic erythrocytes","oral, 2000 mg/kg/day, 3 days",,micronucleated PCEs,0.04 ± 0.04%
CSCC[C@@H]1NC(=O)[C@H](C(C)C)NC(=O)[C@H](CCCNC(=N)N)NC(=O)[C@@H]2CCCN2C(=O)CNC(=O)[C@@H](NC(=O)CNC(=O)[C@H](CO)NC(=O)CNC(=O)[C@H](CO)NC(=S)Nc2ccc(C[C@H]3CN(CC(=O)O)CCN(CC(=O)O)CCN3CC(=O)O)cc2)CSSC[C@@H](C(N)=O)NC(=O)[C@@H]2CCCN2C(=O)CNC(=O)[C@H](CCC(=O)O)NC(=O)[C@H](CC(=O)O)NC(=O)[C@H](CC(=O)O)NC(=O)CNC(=O)[C@H](CC(C)C)NC(=O)[C@H](Cc2c[nH]cn2)NC(=O)[C@H](CC(C)C)NC(=O)CNC(=O)[C@H](Cc2c[nH]cn2)NC1=O [copper-64 labelled],dynamic PET,"CD rat, myocardial infarction model, remote myocardium","intravenous, 18.5 MBq, 5 to 60 min",,half-life,19.3 ± 0.9 min
N=C(N)NCCC[C@H](NC(=O)[C@H](CCCNC(=N)N)NC(=O)[C@H](CCCNC(=N)N)NC(=O)[C@H](CCC(N)=O)NC(=O)[C@H](CCCNC(=N)N)NC(=O)[C@H](CCCNC(=N)N)NC(=O)[C@H](CCCCN)NC(=O)[C@H](CCCCN)NC(=O)[C@H](CCCNC(=N)N)NC(=O)CNC(=O)[C@H](Cc1ccc(O)cc1)NC(=O)[C@H](Cc1ccccc1)NC(=O)[C@H](Cc1ccccc1)NC(=O)[C@H](Cc1ccccc1)NC(=O)Cc1ccc2ccccc2c1)C(=O)O,,C57BL/6 mice,"intraperitoneal, 20 mg/kg, 2 h",direction not given,health score,5
CN1Cc2cc(Cl)ccc2-n2c(nnc2C2CCN(c3cccc([18F])n3)CC2)C1,,"C57BL/6 mouse male, lung","intravenous, 3.7 MBq, 5 min",,tissue uptake,6.86 ± 1.86 %ID/g
N#[11C]c1ccc(-c2csc(NN=C3CCCC3)n2)cc1,,"C57BL/6 mouse, male","intravenous, 3 MBq, 60 min",,uptake in large intestine with contents,2.01 ± 0.35 %ID/g
CC(=O)NCCCC[C@@H]1NC(=O)[C@H](Cc2c[nH]c3c(C)cccc23)NC(=O)[C@H]([C@@H](C)O)NC(=O)[C@H](CC(N)=O)NC(=O)[C@@H](NC(C)=O)C(C)(C)SSC(C)(C)[C@@H](C(=O)N[C@@H](Cc2ccc(OCCN)cc2)C(=O)N[C@@H](Cc2ccc3ccccc3c2)C(=O)NC2(C(=O)N[C@@H](CCC(=O)O)C(=O)N[C@@H](CC(N)=O)C(=O)N[C@@H](Cc3cccnc3)C(=O)N(C)CC(N)=O)CCOCC2)NC1=O,,"cynomolgus monkey, blister fluid","intravenous, 1 mg/kg",,tissue to plasma ratio,46%
CC(C)[C@@H]1NC(=O)CNC(=O)[C@H](CC(N)=O)NC(=O)[C@H](CCCNC(=N)N)NC(=O)[C@H](Cc2ccc(O)cc2)NC(=O)[C@H](C(C)C)NC(=O)[C@@H](NC(=O)[C@@H](NC(=O)[C@H](CC(N)=O)NC(=O)[C@H](Cc2c[nH]c3ccccc23)NC(=O)[C@H](C)NC(=O)[C@H](Cc2ccccc2)NC(=O)CNC(=O)[C@H](CCCCN)NC(=O)[C@H](Cc2ccccc2)NC(=O)[C@H](Cc2ccccc2)NC(=O)[C@H](CCCCN)NC(=O)OCC2c3ccccc3-c3ccccc32)C(C)C)CSSC[C@@H](C(=O)N[C@@H](Cc2c[nH]cn2)C(=O)N[C@@H](CCCNC(=N)N)C(=O)N[C@@H](CCCNC(=N)N)C(=O)N[C@@H](C)C(=O)N[C@@H](CC(N)=O)C(N)=O)NC(=O)[C@H](C(C)C)NC(=O)[C@H](CCCNC(=N)N)NC1=O,,"ICR mouse, blood","intramammary, 5 mg/kg, day 5, 3 d dosing",,calcium,1.35 ± 0.03 mmol/L

# Some of these lines once more:
SMILES,test,system,setting,scale,measurement,value
C#Cc1c(F)ccc2cc(O)cc(-c3ncc4c(N5CC6CCC(C5)N6C(=O)OC(C)OC(=O)c5cccnc5)nc(OC[C@@]56CCCN5C[C@H](F)C6)nc4c3F)c12 (stereo partly shown),chemical stability,simulated intestinal fluid,"1 µM, 30 min",,compound remaining,71%
Cc1ccc(OCC(=O)N(Cc2cccs2)c2ccn[nH]2)cc1,in vivo micronucleus,"Crl:CD-1(ICR) mice, male, bone marrow polychromatic erythrocytes","oral, 2000 mg/kg/day, 3 days",,micronucleated PCEs,0.04 ± 0.04%
